Published values gathered from unrelated publications.
Lines come from different studies, so protocols differ. pIC50: −log10 of the molar value.
Target: Tyrosine-protein phosphatase non-receptor type 1 (PTPN1, Homo sapiens, UniProt P18031)
Read-out: enzyme activity
Action: inhibitor
Sequence (P18031 1-435, as in one of the studies): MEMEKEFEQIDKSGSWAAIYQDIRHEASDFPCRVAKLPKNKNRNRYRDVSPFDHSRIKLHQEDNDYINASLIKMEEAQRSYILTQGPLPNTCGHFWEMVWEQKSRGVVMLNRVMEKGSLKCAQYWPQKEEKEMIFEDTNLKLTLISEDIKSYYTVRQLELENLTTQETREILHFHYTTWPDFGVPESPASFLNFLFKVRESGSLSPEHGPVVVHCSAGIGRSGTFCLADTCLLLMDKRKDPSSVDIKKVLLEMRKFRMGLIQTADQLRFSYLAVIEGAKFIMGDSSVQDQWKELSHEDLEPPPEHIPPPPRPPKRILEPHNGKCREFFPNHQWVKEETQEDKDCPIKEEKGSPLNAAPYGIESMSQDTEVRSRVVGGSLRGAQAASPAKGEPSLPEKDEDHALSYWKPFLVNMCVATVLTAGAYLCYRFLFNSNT

CC1=CC(=O)CC(C)(C)C1(O)C=CC(C)OC1OC(CO)C(O)C(O)C1O (stereo not drawn)
pIC50 (absorbance): < 4.00

CC(C)(O)C1=CCC(C2CC[C@]3(C)C2CCC2[C@@]4(C)CCC(O)C(C)(C)C4CC[C@]23C)C1=O (stereo partly drawn)
pIC50 (absorbance): 4.84

C=CC1C(OC2OC(COC(CC3C(C(=O)OC)=COC(OC4OC(CO)C(O)C(O)C4O)C3C=C)OC)C(O)C(O)C2O)OC=C(C(=O)OC)C1CC(OC)OC (stereo not drawn)
pIC50 (absorbance): < 4.00

CC(C)=CCC[C@](C)(O)[C@H]1CC[C@]2(C)[C@@H]1[C@H](O)C[C@@H]1[C@@]3(C)CC[C@H](O)C(C)(C)[C@@H]3[C@@H](O)C[C@]12C
pIC50 (absorbance; pH 7.4): < 4.00

O=C1CC(c2ccc(OC3OC(CO)C(O)C(O)C3O)cc2)Oc2cc(O)cc(O)c21 (stereo not drawn)
pIC50 (absorbance): < 4.00

CC(C)=CCC/C(C)=C/Cc1c(O)cc2c(c1O)C(=O)C[C@@H](c1ccc(O)c(CC=C(C)C)c1O)O2
pIC50 (absorbance): 4.24

C=CC1C(OC2OC(CO)C(O)C(O)C2O)OC=C(C(=O)OC)C1CC1CC(=O)CC(CC(=O)CCc2ccc(O)cc2)O1 (stereo not drawn)
pIC50 (absorbance): < 4.00

CC(C)=CCCC(C)=CCCC(C)=CCc1c(O)cc(O)c(CC=C(C)C)c1-c1cc2ccc(O)cc2o1
pIC50 (absorbance): 5.05

CC1(CN)CCN(c2cnc(Sc3cccc(Cl)c3Cl)c(N)n2)CC1
pIC50 (fluorescence): < 4.00

CCCC1=C(CO)C(=O)CC(O)C1 (stereo not drawn)
pIC50 (absorbance): 4.92

CC(C)=CCCC1(C)Oc2ccc3cc(-c4cc(O)cc(O)c4CC=C(C)C)oc3c2CC1O (stereo not drawn)
pIC50 (absorbance): 4.96

CC1(C)C=Cc2c(cc(O)c3c(=O)cc(-c4ccc(O)cc4O)oc23)O1
pIC50 (absorbance): 6.10

O=C1OC(c2ccc(O)cc2)Cc2cccc(OC3OC(CO)C(O)C(O)C3O)c21 (stereo not drawn)
pIC50 (absorbance): < 4.00

COc1cc(O)c(CC=C(C)C)c2c1C(=O)[C@H](O)[C@@H](c1ccccc1)O2
pIC50 (absorbance): 4.75

COc1cc(OC2OC(COC3OC(CO)C(O)C(OC4OC(COC5OC(CO)C(O)C(O)C5O)C(O)C(O)C4O)C3O)C(O)C(O)C2O)c2c(O)c3c(=O)cc(C)oc3cc2c1 (stereo not drawn)
pIC50 (absorbance): < 4.00

COc1cc(O)cc(C=Cc2ccc(O)cc2)c1CC=C(C)CCC=C(C)C
pIC50 (absorbance): 4.75

CC(/C=C/C(=O)NO)=C\[C@@H](C)C(=O)c1ccc(N(C)C)cc1
pIC50 (fluorescence): < 4.00

CC(C)=CCc1c(O)cc(-c2cc3ccc(O)c(CC=C(C)C)c3o2)cc1O
pIC50 (absorbance): 4.17

O=c1ccc2cc(O[C@@H]3O[C@H](CO)[C@@H](O)[C@H](O)[C@H]3O)c(O[C@@H]3O[C@H](CO)[C@@H](O)[C@H](O)[C@H]3O)cc2o1
pIC50 (absorbance): < 4.00

CC(C)=CCCC1(C)C=Cc2c(O)cc(-c3cc4ccc(O)cc4o3)cc2O1 (stereo not drawn)
pIC50 (absorbance): < 4.00

C[C@@H]1O[C@@H](O[C@H]2C(=O)c3c(O)cc(O)cc3O[C@@H]2c2ccc(O)cc2)[C@H](O)[C@H](O)[C@H]1O
pIC50 (absorbance): 5.62

Excerpt of the above:
O=C1OC(c2ccc(O)cc2)Cc2cccc(OC3OC(CO)C(O)C(O)C3O)c21 (stereo not drawn)
pIC50 (absorbance): < 4.00
